Measured values of several laboratories.
Numbered parts are unrelated; each lists some results of a single study. Substitutions count along the parent as printed.
UniProt P00519, sequence (whole entry, unmodified, looked up): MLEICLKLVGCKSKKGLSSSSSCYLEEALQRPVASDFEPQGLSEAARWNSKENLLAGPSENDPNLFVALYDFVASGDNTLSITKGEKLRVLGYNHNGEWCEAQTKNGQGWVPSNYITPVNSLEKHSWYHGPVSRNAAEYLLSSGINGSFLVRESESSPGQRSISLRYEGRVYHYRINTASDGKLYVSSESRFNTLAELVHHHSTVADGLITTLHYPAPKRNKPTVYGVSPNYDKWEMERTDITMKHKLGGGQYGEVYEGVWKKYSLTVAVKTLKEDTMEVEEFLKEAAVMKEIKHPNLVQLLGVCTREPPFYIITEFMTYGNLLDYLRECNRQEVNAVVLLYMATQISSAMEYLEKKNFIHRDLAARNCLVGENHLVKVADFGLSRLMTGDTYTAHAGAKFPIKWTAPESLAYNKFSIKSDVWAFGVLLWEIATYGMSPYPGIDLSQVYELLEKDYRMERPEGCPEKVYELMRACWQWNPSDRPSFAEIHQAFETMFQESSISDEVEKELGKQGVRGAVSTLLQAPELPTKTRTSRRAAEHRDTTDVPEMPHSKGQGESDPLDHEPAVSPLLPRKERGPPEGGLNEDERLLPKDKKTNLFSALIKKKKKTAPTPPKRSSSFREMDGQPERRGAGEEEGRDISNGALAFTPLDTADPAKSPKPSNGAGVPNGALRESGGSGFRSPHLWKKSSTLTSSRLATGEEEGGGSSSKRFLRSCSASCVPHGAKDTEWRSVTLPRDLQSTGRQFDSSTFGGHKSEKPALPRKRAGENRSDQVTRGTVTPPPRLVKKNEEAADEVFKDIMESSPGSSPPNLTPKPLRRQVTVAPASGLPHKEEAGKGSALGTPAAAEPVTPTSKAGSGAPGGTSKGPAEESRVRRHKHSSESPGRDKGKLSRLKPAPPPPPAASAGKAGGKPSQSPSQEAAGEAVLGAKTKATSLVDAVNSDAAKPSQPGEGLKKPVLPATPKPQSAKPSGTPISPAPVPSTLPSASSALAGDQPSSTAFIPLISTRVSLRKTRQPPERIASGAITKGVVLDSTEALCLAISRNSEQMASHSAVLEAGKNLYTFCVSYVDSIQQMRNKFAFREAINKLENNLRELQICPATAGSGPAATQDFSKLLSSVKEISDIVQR

Set 1 — technique: protein-binding microarray; form: double-stranded DNA, one strand shown; medium: in vitro; concentration: not given; reading: higher = stronger binding
Target: Transcription factor Sp1 (SP1, Homo sapiens, UniProt P08047, residues 1-785, full length assumed)
UniProt P08047, sequence (whole entry, looked up): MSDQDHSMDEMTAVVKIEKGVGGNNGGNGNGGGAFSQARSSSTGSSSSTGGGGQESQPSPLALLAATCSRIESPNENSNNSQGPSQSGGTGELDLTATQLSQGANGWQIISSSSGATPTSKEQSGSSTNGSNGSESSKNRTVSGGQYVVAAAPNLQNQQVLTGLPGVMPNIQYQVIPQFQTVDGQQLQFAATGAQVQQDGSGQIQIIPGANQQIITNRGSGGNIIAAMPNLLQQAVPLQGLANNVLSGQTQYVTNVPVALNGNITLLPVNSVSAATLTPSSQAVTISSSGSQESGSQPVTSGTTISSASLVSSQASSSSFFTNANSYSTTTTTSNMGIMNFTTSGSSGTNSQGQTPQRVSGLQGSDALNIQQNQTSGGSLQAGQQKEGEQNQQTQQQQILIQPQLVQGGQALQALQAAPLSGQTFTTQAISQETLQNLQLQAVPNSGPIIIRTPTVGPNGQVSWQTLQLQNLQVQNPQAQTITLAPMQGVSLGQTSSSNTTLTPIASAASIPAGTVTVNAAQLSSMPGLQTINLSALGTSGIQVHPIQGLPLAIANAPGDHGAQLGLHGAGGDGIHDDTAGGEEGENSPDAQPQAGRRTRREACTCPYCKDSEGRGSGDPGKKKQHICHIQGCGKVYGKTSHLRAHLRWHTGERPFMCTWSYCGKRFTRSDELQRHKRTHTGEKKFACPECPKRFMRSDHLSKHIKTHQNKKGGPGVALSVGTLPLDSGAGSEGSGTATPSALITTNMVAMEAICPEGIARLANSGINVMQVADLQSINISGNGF
Setting: k-mer, scored over probes, only values ≥0.25
Strand	E-score
CAAATCTA	0.274
ACCGCCCT	0.285
ACAAAGCA	0.251
AGTAAGTG	0.283
CGTTGTAG	0.254
AGAGGGCG	0.293
CACCCACC	0.393
AAGTGGGA	0.295

Set 2 — technique: DHFR PCA, dose-response; medium: yeast; setting: Hill fit, not affinity; with: (+)-ABA, dose series; reading: lower = more sensitive
Target: ABI1, truncated, D143A, DHFR fusion (Arabidopsis thaliana, UniProt P49597)
Parent: PYL1, truncated, DHFR fusion (Arabidopsis thaliana, UniProt Q8VZS8); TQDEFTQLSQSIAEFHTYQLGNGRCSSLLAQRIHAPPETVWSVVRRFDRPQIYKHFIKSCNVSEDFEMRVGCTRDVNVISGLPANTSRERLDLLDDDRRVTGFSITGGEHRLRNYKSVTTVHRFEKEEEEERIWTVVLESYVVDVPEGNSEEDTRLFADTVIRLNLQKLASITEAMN
Change	ABA EC50
F124I	2.65 µM
G108L	2500 µM
H110N	22.6 µM
F103C	1300 µM
V78Y	2.04 µM
G102H	1680 µM

Other studies, line by line
Compound	target	test	conditions	scale	endpoint	value
CC(=O)N1CCC(c2ccc(C(=O)NC3=NCCN3)cc2C(F)(F)F)CC1	Tyrosine-protein kinase ABL1, phosphorylated (ABL1, Homo sapiens, UniProt P00519, E255K)	binding, competition with immobilised ligand	1 µM		remaining binding	82%
CCCC(=O)Oc1ccc2[nH]c(C(=O)c3cc4ccccc4[nH]3)cc2c1	Testis-specific serine/threonine-protein kinase 2 (TSSK2, Homo sapiens, UniProt Q96PF2)	enzyme activity, inhibitor	0.5 µM	reference: control	remaining activity	78%

For quick reference, copied from above (set 1):
Strand	E-score
ACCGCCCT	0.285
ACAAAGCA	0.251
